{"data": "Measurements gathered from unrelated publications", "target": "Delta-type opioid receptor (Oprd1, Rattus norvegicus, UniProt P33533)", "note": "± marks the error that the study gave.", "UniProt P33533, sequence (whole entry, looked up)": "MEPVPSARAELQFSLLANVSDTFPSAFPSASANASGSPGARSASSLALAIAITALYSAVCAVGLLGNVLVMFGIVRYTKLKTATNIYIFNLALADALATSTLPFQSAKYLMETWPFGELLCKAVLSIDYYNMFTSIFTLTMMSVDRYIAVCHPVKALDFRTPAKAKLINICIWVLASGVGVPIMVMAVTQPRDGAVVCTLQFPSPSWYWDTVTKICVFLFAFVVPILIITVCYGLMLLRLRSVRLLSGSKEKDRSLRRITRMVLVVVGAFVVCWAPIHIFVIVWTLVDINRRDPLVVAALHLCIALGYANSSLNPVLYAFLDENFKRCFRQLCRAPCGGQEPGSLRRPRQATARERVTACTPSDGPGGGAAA"}
{"SMILES": "CCCc1cc(Cc2ccccc2)cc2c1NCCC2NC(=O)C(N)Cc1c(C)cc(O)cc1C (centres unmarked)", "assay": "GTPγS binding, agonist, radiometric", "conditions": "cell membranes", "quantity": "EC50", "value": "310 nM"}
{"SMILES": "CC(C)C[C@H](NC(=O)[C@H](Cc1cccc2ccccc12)NC(=O)CNC(=O)[C@H](NC(=O)[C@@H](N)Cc1ccc(O)cc1)[C@H](C)O)C(=O)N[C@@H](CO)C(N)=O", "assay": "GTPγS binding, agonist, radiometric", "conditions": "cell membranes", "quantity": "EC50", "value": "35 nM"}
{"SMILES": "Cc1cc(O)cc(C)c1CC(N)C(=O)NC1CCNc2c(Cc3ccccc3)cc(Cc3ccccc3)cc21 (centres unmarked)", "assay": "ligand displacement, radioligand", "conditions": "cell membranes", "quantity": "Ki", "value": "1.6 nM"}
{"SMILES": "Cc1cc(O)cc(C)c1CC(N)C(=O)NC1CCNc2ccc(CN3CCCCCC3)cc21 (centres unmarked)", "assay": "ligand displacement, radioligand", "conditions": "cell membranes", "quantity": "Ki", "value": "61 nM"}
{"SMILES": "Cc1cc(O)cc(C)c1C[C@H](N)C(=O)N[C@@H]1CSCCSC(C)(C)[C@H](C(=O)N[C@@H](CO[C@@H]2O[C@H](CO)[C@@H](O)[C@H](O)[C@H]2O)C(N)=O)NC(=O)C2(Cc3ccccc3C2)NC1=O", "assay": "antagonist", "conditions": "with: DPDPE", "quantity": "Kd", "value": "6.1 ± 1.5 nM"}
{"SMILES": "Cc1cc(O)cc(C)c1CC(N)C(=O)NC1CCNc2ccc(Cc3ccoc3)cc21 (centres unmarked)", "assay": "ligand displacement, radioligand", "conditions": "cell membranes", "quantity": "Ki", "value": "18 nM"}
{"SMILES": "CC(C)C[C@H](NC(=O)C1(NC(=O)CNC(=O)[C@H](NC(=O)[C@@H](N)Cc2ccc(O)cc2)[C@H](C)O)Cc2ccccc2C1)C(=O)N[C@@H](CO)C(N)=O", "assay": "ligand displacement, radioligand", "conditions": "pH 7.4, cell membranes", "quantity": "Ki", "value": "> 5000 nM"}
{"SMILES": "Cc1cc(O)cc(C)c1CC(N)C(=O)NC1CCNc2c(C(=O)O)cc(Cc3ccccc3)cc21 (centres unmarked)", "assay": "ligand displacement, radioligand", "conditions": "cell membranes", "quantity": "Ki", "value": "2.4 nM"}
{"SMILES": "Cc1cc(O)cc(C)c1CC(N)C(=O)NC1CCNc2ccc(CN3CCCCC3)cc21 (centres unmarked)", "assay": "ligand displacement, radioligand", "conditions": "cell membranes", "quantity": "Ki", "value": "120 nM"}
{"SMILES": "Cc1cc(O)cc(C)c1C[C@H](N)C(=O)N[C@@H](C(=O)NCC(=O)N[C@@H](Cc1ccc2ccccc2c1)C(=O)N[C@@H](CC(C)C)C(=O)N[C@@H](CO)C(N)=O)[C@H](C)O", "assay": "GTPγS binding, agonist, radiometric", "conditions": "cell membranes", "quantity": "EC50", "value": "0.3 nM"}
{"SMILES": "CC[C@H](C)[C@H](NC(=O)[C@@H](N)Cc1ccc(O)cc1)C(=O)N[C@@H](Cc1ccccc1)C(=O)N[C@@H](CC(N)=O)C(=O)N[C@@H](CC(C)C)C(=O)O", "assay": "binding", "system": "rat brain membranes", "conditions": "with: [3H]DPDPE", "quantity": "IC50", "value": "82.5 ± 8.1e-08 nM"}
{"note": "Excerpt of the above:"}
{"SMILES": "CC[C@H](C)[C@H](NC(=O)[C@@H](N)Cc1ccc(O)cc1)C(=O)N[C@@H](Cc1ccccc1)C(=O)N[C@@H](CC(N)=O)C(=O)N[C@@H](CC(C)C)C(=O)O", "assay": "binding", "system": "rat brain membranes", "conditions": "with: [3H]DPDPE", "quantity": "IC50", "value": "82.5 ± 8.1e-08 nM"}
